Published values collected from several papers.
“And” joins repeats or separate records; there may be more than shown. ± gives the spread as reported.
Sequence of UniProt P10632 (whole entry, looked up): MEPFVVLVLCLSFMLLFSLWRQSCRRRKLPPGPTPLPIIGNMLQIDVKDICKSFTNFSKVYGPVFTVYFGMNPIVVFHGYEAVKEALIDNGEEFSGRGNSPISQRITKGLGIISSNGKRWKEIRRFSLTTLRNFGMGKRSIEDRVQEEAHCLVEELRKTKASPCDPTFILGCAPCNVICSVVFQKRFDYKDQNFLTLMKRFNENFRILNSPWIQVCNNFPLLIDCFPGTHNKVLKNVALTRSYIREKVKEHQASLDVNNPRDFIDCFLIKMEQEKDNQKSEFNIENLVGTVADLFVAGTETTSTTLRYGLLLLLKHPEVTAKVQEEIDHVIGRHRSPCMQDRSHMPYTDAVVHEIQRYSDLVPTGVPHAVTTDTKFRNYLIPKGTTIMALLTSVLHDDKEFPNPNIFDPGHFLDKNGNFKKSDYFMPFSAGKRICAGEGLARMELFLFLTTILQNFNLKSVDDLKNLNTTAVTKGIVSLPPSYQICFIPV
Sequence of UniProt P02769 (whole entry, looked up): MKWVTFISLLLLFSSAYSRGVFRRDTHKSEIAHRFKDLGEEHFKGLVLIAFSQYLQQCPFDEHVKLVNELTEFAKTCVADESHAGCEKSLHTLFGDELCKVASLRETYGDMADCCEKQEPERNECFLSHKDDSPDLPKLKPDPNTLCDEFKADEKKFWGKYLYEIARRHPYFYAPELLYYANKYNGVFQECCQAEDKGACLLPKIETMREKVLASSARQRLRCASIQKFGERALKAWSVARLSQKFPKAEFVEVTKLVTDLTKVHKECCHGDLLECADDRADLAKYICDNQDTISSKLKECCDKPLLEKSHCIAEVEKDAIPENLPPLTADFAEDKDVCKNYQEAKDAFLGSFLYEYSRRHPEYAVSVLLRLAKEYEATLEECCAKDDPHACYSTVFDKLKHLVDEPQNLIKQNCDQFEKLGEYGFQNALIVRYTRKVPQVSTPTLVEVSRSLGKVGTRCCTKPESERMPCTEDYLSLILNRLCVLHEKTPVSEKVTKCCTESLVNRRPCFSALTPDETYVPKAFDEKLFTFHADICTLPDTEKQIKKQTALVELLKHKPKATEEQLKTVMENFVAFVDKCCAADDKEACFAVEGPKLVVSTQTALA

With `Nc1nc(-c2ccccc2)nc2[nH]nc(Nc3ccc(OC(F)(F)F)cc3)c12` the CC50 was greater than 129 µM (HeLa Ohio; 72 h).
`CCN(CC)CC#CCNc1ccnc2cc(Cl)ccc12`: “revertants per well” 2 (Salmonella typhimurium; mini-Ames test; TA1535; 250.0 µg/well, with rat liver S9).
`N#C[C@@H]1CC(F)(F)CN1C(=O)CNC(=O)c1ccnc2c(NC(=O)CCOCCOCCOCCOCCOCCOCCNC(=O)[C@H](CCCCNC(=O)CN3CCN(CC(=O)[O-])CCN(CC(=O)[O-])CCN(CC(=O)[O-])CC3)NC(=O)CCCc3ccc(I)cc3)cccc12.[177Lu+3]` has a tracer uptake of 1.68 %ID/g (U-87 MG tumour model; host not given, heart; 1 h, tumour-bearing).
For `N#C[C@@H]1CCCN1C(=O)CNC(=O)c1ccnc2ccc(OCCCN3CCN(C(=O)CCc4ccc5c(c4)CN4CCN(Cc6cc(CCC(=O)O)ccc6O)CC(=O)[O][Al-]([18F])([O]C(=O)C4)[O]5)CC3)cc12` (stereo partly drawn), the tracer uptake was 8.26 %ID/g (U-87 MG tumour model; host not given, bone; 1 h, tumour-bearing).
`O=C1C2CC3CC1CC(C(=O)N1CCN(c4ccc([N+](=O)[O-])c5ncccc45)CC1)(C3)C2`: “revertant fold increase” 1.6 (Salmonella typhimurium; Ames test; TA98; 0.31 µg/well, without S9; relative to: vehicle).
For `O=C([O-])CN1CCN(CC(=O)[O-])CCN(Cc2cccc(C(=O)[O-])n2)CC1.[44Sc+3]`, the tracer uptake was 1.17 %ID/g (mouse, bone; intravenous, 1 h).
The MRT(0-last) of `C=C(NC(=O)c1csc(-c2nc3c(cc2O)-c2nc(cs2)C(=O)NC(C(C)O)C(=O)NC(=C(C)OC)c2nc(cs2)C(=O)NC2c4nc(cs4)C(=O)NC(COC(=O)c4c5c6c(cccc6n4O)COC(=O)C(OC4CC(C)(O)C(N(C)C)C(C)O4)C2OC5)c2nc-3cs2)n1)C(N)=O` (stereo not drawn) is reported as 1.48 h (Sprague-Dawley rat, male, plasma; intravenous infusion, 6 mg/kg single dose).
The revertants of `Nc1nc2cc(C(=O)c3ccc(F)cc3)ccc2[nH]1` is reported as 18 revertants/plate (Salmonella typhimurium; Ames preincubation test; TA1535; 78.0 µg/plate, without S9).
`O=C1NC2(CC2)COc2ncc(F)cc2[C@H]2COCCN2c2ccn3ncc1c3n2` gave a revertant colonies of 16 ± 1 revertants/plate (Salmonella typhimurium; Ames test; TA98; 500 µg/plate, 48 h, with: rat liver S9).
`N#C[C@@H]1CC(F)(F)CN1C(=O)CNC(=O)c1ccnc2c(NC(=O)[C@@H](N)CCCCNC(=O)CCOCCOCCOCCOCCOCCOCCNC(=O)CN3CCN(CC(=O)[O-])CCN(CC(=O)[O-])CCN(CC(=O)[O-])CC3)cccc12.[177Lu+3]` gave a tracer uptake of 0.17 %ID/g (U-87 MG tumour model; host not given, liver; 48 h, tumour-bearing).
For `Nc1nc(-c2ccccc2)nc2[nH]nc(Nc3ccccc3)c12`, the CC50 was greater than 122 µM (HeLa Ohio; 72 h).
`CN(C)c1ccc2c(c1)[Si](C)(C)c1cc(N(C)C)ccc1C21OC(=O)c2c(C(=O)O)cccc21` has a Kd of 29 ± 3 µM (Albumin (ALB, Bos taurus, UniProt P02769); binding, fluorescence titration; PBS).
With `C=CC(=O)Nc1cc(Nc2nccc(-c3cn(C)c4ccccc34)n2)c(OCC(F)(F)F)nc1N(C)CCN(C)C` the induction was 9.32% (human hepatocytes lot HC3-31; CYP1A2 enzyme activity, inducer; 1 µM; relative to: omeprazole 100 µM).
With `CCOc1ccc(Nc2n[nH]c3nc(-c4ccccc4)nc(N)c23)cc1` the CC50 was greater than 144 µM (HeLa Ohio; 72 h).
`CN(Cc1ccccc1)C(=O)CN1CCN(CC(=O)[O-])CCN(Cc2cccc(C(=O)[O-])n2)CC1.[177Lu+3]` has a tracer uptake of 10.7 %ID/g (mouse, kidney; intravenous, 1 h).
`Nc1nc(-c2ccccc2)nc2[nH]nc(Nc3ccc(Cl)cc3)c12` has a CC50 of greater than 594 µM (HeLa Ohio; 72 h).
With `N#C[C@@H]1CC(F)(F)CN1C(=O)CNC(=O)c1ccnc2c(NC(=O)[C@H](CCCCNC(=O)CCOCCOCCOCCOCCOCCOCCNC(=O)CN3CCN(CC(=O)[O-])CCN(CC(=O)[O-])CCN(CC(=O)[O-])CC3)NC(=O)CCCc3ccc(I)cc3)cccc12.[177Lu+3]` the tracer uptake was 2.88 %ID/g (U-87 MG tumour model; host not given, tumour; 72 h, tumour-bearing).
With `Cc1ccc(-c2nc(N)c3c(Nc4ccc(Cl)cc4)n[nH]c3n2)cc1` the CC50 was 6.8 µM (HeLa Ohio; 72 h).
For `O=C(Nc1cnccc1-c1ccc([18F])nc1)c1ccnc(NC(=O)C2CC2)c1`, the SUV was 9.63 (FVB/NJ mouse, both sexes, liver; intravenous, 20 min).
With `CN(Cc1ccccc1)C(=O)CN1CCN(CC(=O)[O-])CCN(CC(=O)N(C)Cc2ccccc2)CC1.[18F-].[Sc+3]` the tracer uptake was 2.48 %ID/g (mouse, bone; intravenous, 1 h).
`COc1cccc(OC)c1-c1cc(C(=O)NC2(C(=O)O)C3CC4CC(C3)CC2C4)nn1-c1ccc(C(=O)NCCNC(=O)[C@H](CCCCNC(=O)[C@H](CC(C)C)NC(=O)C2OC2C(=O)O)NC(=O)CN2CCN(CC(=O)[O-])CCN(CC(=O)[O-])CCN(CC(=O)[O-])CC2)cc1C(C)C.[177Lu+3]` (mixture of isomers) gave a tracer uptake of 0.2 %ID/g (HT-29 tumour model; host not given, pancreas; 72 h, tumour-bearing).
Under “amount in cell extract”, `OC(Cc1cc(-c2ccc(C(O)C(F)(F)F)s2)sc1-c1ccc(-c2sc(-c3ccc(C(O)C(F)(F)F)s3)cc2CC(O)C(F)(F)F)s1)C(F)(F)F` (stereo not drawn) is recorded as 1.32 nmol and 1.29 nmol and 1.53 nmol (primary human fetal neurons; LC-MS/MS; 4 µM, 60 min, replicate 1).
`CC(C)Cc1ccc(C(C)C(=O)N[C@@H](CCCCNC(=O)CCOCCOCCOCCOCCOCCOCCNC(=O)CN2CCN(CC(=O)[O-])CCN(CC(=O)[O-])CCN(CC(=O)[O-])CC2)C(=O)Nc2cccc3c(C(=O)NCC(=O)N4CC(F)(F)C[C@H]4C#N)ccnc23)cc1.[177Lu+3]` (stereo partly drawn) gave a tracer uptake of 1.8 %ID/g (U-87 MG tumour model; host not given, stomach; 4 h, tumour-bearing).
For `COc1cccc(OC)c1-c1cc(C(=O)NC2(C(=O)O)C3CC4CC(C3)CC2C4)nn1-c1ccc(C(=O)N(C)CCCN(C)CCCN(C)C(=O)[C@H](CCCCNC(=O)[C@H](CC(C)C)NC(=O)C2OC2C(=O)O)NC(=O)CN2CCN(CC(=O)[O-])CCN(CC(=O)[O-])CCN(CC(=O)[O-])CC2)cc1C(C)C.[177Lu+3]` (mixture of isomers), the tracer uptake was 1.1 %ID/g (HT-29 tumour model; host not given, bone; 24 h, tumour-bearing).
`Cc1ccc(-c2nc(N)c3c(Nc4ccc(F)cc4)n[nH]c3n2)cc1F` gave a CC50 of 14.5 µM (HeLa Ohio; 72 h).
The remaining activity of `CNC(=O)C1CCCN(C(=O)C2CC3CCC2N3C(=O)[C@@H]2C[C@@H](O)CN2C(=O)NCc2cccc(Cl)c2F)C1` (mixture of isomers) is reported as 81.1% and 84.9% and 95.4% (Cytochrome P450 2C8 (CYP2C8, Homo sapiens, UniProt P10632); preincubation without NADPH; human; 1.85 µM; relative to: negative control).
With `Nc1nc(-c2ccc(Cl)cc2)nc2[nH]nc(Nc3cccc(F)c3)c12` the CC50 was 113 µM (HeLa Ohio; 72 h).
Under “revertant fold increase”, `CC(C)OCCOCc1ccc(OCC(O)CN(N=O)C(C)C)cc1` (stereo not drawn) is recorded as 0.8 fold (Salmonella typhimurium; Ames test; TA98; 500 µg/plate, without metabolic activation; relative to: solvent control).
The CC50 of `Cc1cccc(-c2nc(N)c3c(Nc4ccc(F)cc4)n[nH]c3n2)c1` is reported as 23.9 µM (HeLa Ohio; 72 h).
`N#C[C@@H]1CCCN1C(=O)CNC(=O)c1ccnc2ccc(OCCCN3CCN(C(=O)CCc4ccc(O)c(CN5CCN6CC(=O)[O][Al-]([18F])([O]C(=O)C5)[O]c5ccc(CCC(=O)N7CCN(CCCOc8ccc9nccc(C(=O)NCC(=O)N%10CCC[C@H]%10C#N)c9c8)CC7)cc5C6)c4)CC3)cc12` (stereo partly drawn) gave a tracer uptake of 2.24 %ID/g (U-87 MG tumour model; host not given, pancreas; 2 h, tumour-bearing).

Excerpt of the above:
Under “revertant fold increase”, `CC(C)OCCOCc1ccc(OCC(O)CN(N=O)C(C)C)cc1` (stereo not drawn) is recorded as 0.8 fold (Salmonella typhimurium; Ames test; TA98; 500 µg/plate, without metabolic activation; relative to: solvent control).
For `O=C(Nc1cnccc1-c1ccc([18F])nc1)c1ccnc(NC(=O)C2CC2)c1`, the SUV was 9.63 (FVB/NJ mouse, both sexes, liver; intravenous, 20 min).
`N#C[C@@H]1CC(F)(F)CN1C(=O)CNC(=O)c1ccnc2c(NC(=O)CCOCCOCCOCCOCCOCCOCCNC(=O)[C@H](CCCCNC(=O)CN3CCN(CC(=O)[O-])CCN(CC(=O)[O-])CCN(CC(=O)[O-])CC3)NC(=O)CCCc3ccc(I)cc3)cccc12.[177Lu+3]` has a tracer uptake of 1.68 %ID/g (U-87 MG tumour model; host not given, heart; 1 h, tumour-bearing).
